Experimental data of several laboratories.
Lines come from different studies, so protocols differ. Several values in a cell are separate wells, animals, samples, runs or records.
lasR: Transcriptional activator protein LasR (lasR, Pseudomonas aeruginosa, UniProt P25084)
Sequence of UniProt P25084 (whole entry, looked up): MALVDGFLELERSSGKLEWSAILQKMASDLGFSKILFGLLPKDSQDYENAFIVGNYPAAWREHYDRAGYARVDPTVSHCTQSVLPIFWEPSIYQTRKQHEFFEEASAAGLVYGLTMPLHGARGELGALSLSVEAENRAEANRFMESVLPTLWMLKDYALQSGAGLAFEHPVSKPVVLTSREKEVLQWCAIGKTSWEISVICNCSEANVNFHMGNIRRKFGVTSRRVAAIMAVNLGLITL
Sequence of UniProt P78417 (whole entry, looked up): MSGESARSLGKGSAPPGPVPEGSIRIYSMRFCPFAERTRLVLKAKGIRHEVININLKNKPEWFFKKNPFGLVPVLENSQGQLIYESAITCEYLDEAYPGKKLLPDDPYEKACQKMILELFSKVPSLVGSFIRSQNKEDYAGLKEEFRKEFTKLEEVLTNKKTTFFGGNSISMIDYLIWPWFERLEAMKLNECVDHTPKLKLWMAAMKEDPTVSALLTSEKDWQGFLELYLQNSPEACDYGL
Sequence of UniProt Q16816 (whole entry, looked up): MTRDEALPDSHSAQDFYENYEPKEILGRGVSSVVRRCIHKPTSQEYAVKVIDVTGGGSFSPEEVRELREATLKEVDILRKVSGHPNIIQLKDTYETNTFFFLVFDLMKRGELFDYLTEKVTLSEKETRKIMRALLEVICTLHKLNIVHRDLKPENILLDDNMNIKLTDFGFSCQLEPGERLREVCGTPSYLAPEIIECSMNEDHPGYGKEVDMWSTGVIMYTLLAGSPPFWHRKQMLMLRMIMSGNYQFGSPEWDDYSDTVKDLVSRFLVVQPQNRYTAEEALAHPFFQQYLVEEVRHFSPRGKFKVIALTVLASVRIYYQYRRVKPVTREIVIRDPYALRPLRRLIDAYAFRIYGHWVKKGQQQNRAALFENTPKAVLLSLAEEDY
Sequence of UniProt P15207 (whole entry, looked up): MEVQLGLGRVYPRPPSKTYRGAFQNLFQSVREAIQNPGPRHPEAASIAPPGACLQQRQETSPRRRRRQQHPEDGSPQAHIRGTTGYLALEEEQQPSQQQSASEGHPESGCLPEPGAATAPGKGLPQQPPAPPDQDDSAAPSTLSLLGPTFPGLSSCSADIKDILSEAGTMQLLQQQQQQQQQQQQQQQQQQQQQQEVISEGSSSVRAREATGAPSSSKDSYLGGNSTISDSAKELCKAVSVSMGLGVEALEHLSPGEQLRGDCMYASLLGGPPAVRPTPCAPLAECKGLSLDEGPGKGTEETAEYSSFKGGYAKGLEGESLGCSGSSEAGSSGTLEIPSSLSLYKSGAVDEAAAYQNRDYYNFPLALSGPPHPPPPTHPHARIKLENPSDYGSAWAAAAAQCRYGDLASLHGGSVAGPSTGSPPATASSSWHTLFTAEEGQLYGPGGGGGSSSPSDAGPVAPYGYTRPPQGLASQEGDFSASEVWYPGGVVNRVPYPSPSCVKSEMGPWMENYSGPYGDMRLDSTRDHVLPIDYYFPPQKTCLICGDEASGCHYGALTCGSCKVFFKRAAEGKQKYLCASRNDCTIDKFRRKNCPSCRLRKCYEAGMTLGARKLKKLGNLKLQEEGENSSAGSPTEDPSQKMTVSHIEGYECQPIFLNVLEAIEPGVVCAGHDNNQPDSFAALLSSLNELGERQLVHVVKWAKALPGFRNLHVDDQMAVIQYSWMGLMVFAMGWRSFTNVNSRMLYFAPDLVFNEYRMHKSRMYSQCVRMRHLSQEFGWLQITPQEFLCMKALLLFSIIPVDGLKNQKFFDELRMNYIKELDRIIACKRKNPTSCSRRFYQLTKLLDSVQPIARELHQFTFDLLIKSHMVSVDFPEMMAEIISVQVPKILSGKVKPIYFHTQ
Sequence of UniProt P08311 (whole entry, looked up): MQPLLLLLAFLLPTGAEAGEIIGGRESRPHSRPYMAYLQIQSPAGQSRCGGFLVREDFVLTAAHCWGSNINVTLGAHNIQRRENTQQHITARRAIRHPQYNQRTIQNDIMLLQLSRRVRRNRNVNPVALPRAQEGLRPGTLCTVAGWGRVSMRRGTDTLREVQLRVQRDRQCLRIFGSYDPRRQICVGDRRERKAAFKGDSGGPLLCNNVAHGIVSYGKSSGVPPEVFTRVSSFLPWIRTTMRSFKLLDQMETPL
Sequence of UniProt Q9UM07 (whole entry, looked up): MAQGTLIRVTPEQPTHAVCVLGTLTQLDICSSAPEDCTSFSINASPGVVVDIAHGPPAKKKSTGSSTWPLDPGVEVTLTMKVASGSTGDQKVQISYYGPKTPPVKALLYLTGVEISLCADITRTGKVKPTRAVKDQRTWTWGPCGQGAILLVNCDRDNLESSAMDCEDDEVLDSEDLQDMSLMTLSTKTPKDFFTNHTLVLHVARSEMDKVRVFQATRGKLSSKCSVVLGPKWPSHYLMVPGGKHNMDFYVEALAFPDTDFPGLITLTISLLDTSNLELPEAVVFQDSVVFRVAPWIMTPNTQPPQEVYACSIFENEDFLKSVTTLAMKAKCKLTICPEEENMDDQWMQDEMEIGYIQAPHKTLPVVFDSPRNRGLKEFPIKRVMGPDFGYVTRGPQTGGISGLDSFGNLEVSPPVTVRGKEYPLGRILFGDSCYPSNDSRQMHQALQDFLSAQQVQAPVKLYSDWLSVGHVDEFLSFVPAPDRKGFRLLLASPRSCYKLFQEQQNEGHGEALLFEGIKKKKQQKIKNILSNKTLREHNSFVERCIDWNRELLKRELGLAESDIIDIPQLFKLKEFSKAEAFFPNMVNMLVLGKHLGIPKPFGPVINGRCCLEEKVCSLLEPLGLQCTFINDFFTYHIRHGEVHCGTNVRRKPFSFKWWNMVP
Sequence of UniProt P43403 (whole entry, looked up): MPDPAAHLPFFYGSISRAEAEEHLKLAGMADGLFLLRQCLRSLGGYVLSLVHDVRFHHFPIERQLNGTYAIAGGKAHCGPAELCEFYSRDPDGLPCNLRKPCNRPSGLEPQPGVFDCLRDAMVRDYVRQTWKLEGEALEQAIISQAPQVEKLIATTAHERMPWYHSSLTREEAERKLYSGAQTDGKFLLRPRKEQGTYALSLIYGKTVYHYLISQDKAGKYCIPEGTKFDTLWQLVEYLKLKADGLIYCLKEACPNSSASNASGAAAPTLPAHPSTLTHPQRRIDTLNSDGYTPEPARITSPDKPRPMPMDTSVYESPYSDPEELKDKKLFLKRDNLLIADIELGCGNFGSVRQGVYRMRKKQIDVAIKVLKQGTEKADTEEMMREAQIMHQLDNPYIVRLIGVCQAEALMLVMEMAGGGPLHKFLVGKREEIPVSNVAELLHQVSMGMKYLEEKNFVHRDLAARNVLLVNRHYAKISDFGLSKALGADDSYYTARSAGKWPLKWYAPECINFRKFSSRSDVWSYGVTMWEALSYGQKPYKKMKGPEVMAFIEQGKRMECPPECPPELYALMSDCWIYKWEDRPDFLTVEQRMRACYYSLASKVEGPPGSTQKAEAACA
Sequence of UniProt Q96PF2 (whole entry, looked up): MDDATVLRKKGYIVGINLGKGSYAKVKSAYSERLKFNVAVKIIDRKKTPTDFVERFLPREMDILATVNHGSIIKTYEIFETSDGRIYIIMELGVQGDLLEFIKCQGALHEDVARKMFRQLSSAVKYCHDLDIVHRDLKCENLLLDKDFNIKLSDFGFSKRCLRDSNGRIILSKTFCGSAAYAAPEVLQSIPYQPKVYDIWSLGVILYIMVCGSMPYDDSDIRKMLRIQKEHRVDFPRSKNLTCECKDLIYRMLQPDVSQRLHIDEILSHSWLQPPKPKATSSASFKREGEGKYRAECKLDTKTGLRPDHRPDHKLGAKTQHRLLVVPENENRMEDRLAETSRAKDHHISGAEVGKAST
Sequence of UniProt Q9BWU1 (whole entry, looked up): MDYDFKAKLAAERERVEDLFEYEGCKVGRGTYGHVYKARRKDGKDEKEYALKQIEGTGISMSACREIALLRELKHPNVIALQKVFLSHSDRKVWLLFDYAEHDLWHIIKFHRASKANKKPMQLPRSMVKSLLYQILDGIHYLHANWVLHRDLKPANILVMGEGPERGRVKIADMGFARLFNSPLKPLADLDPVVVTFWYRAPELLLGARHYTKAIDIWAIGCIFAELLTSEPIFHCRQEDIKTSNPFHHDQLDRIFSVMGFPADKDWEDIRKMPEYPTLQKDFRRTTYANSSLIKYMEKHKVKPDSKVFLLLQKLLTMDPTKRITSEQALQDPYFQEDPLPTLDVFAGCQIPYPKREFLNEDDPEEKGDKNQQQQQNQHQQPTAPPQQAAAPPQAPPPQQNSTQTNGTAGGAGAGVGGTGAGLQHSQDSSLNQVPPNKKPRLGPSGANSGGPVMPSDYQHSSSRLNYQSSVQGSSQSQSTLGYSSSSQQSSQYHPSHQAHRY
Sequence of UniProt Q9UPE1 (whole entry, looked up): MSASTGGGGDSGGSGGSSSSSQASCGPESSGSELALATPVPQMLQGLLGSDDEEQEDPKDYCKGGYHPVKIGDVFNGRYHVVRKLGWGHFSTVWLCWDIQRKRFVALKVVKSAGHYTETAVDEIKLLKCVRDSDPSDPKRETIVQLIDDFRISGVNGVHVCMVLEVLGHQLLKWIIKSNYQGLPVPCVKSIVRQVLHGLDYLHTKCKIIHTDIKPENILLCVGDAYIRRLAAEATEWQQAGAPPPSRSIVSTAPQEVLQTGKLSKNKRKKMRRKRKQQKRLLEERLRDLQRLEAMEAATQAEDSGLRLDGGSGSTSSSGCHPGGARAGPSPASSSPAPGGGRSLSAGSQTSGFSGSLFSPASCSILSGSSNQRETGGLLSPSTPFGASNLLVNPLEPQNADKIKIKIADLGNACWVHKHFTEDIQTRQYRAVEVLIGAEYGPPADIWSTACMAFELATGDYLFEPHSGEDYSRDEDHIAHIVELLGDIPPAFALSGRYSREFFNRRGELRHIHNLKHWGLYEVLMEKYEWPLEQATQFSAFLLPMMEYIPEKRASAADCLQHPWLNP

| Compound | target | assay | system | setting | inhibition |
| --- | --- | --- | --- | --- | --- |
| O=C1C=CC(=Cc2c(-c3ccc(Cl)cc3)[nH]oc2=O)C=C1 | GSTO1 (Homo sapiens, UniProt P78417) | – | – | 5 µM | 92% |
| Cc1cc(B2OC(C)(C)C(C)(C)O2)ccc1S(N)(=O)=O | Uncharacterized hydrolase SAUSA300_2518 (Staphylococcus aureus, UniProt Q2FDS6) | enzyme activity, inhibitor | – | 50 µM | 92% |
| O=C(CN1CN(c2ccccc2)C2(CCN(C(=O)c3cnc4[nH]ncc4c3)CC2)C1=O)NCC(F)(F)F | CDK19 (Homo sapiens, UniProt Q9BWU1) | inhibitor | – | concentration not given | < 50% |
| CN(/N=C/c1ccccc1C(=O)O)c1nc(-c2ccccc2Cl)cs1 | NEK1 (Homo sapiens, UniProt Q96PY6) | enzyme activity, inhibitor | – | 1 µM | 3.78% |
| CCOC(=O)[C@](CC)(CCCSCCOCCOCCNC(=O)c1ccc(-c2c3ccc(=N)c(S(=O)(=O)O)c-3oc3c(S(=O)(=O)O)c(N)ccc23)c(C(=O)O)c1)NC(=O)c1ccc(C2CC2)c(Cc2ccc(F)cc2)n1 | ZAP70 (Homo sapiens, UniProt P43403) | enzyme activity, inhibitor | – | 10 µM | 39% |
| CN[C@@H]1[C@H](O)[C@H](NC)[C@H]2O[C@]3(O)[C@H](O[C@@H]2[C@H]1O)O[C@H](C)C[C@H]3NC(=O)Cc1cc(Cl)ccn1 | Androgen receptor (Ar, Rattus norvegicus, UniProt P15207) | ligand displacement, radioligand | – | 10 µM | -1% |
| C[C@H](NCc1ccc(-c2ccc(C(F)(F)F)cc2)cc1)C(N)=O | SRPK3 (Homo sapiens, UniProt Q9UPE1) | cell-free assay, competition with immobilised ligand | – | 1 µM | 21% |
| CC(C)[C@H]1NC(=O)C[C@H]2/C=C/CCSSC[C@@H](NC1=O)C(=O)N[C@H](Cc1cccc3ccccc13)C(=O)NCC(=O)O2 | PHKG1 (Homo sapiens, UniProt Q16816) | enzyme activity, inhibitor | – | 10 µM | 3.3% |
| Cc1ccc2c(n1)c(-c1cccc(S(C)(=O)=O)c1)c(C)n2C/C(F)=C/CN | Cathepsin G (CTSG, Homo sapiens, UniProt P08311) | cell-free assay | – | 10 µM | -12% |
| CCC1CC(c2ccc(C(=O)O)cc2C)=NN1c1ccc(C#N)c(Cl)c1 (centres unmarked) | DNA (cytosine-5)-methyltransferase 3B, with DNMT3L (DNMT3B, Homo sapiens, UniProt Q9UBC3) | enzyme activity | – | 10 µM | 0% |
| O=C(Nc1ccccc1NC(=O)c1cccc(Cl)c1)c1cccc(Cl)c1 | lasR | reporter gene, antagonist | Escherichia coli JLD271 | 10 µM, pSC11 and pJN105L plasmids, together with: OdDHL 2 nM | 12% |
| CS(C)(=O)=Nc1ccc(-c2ccc(-c3nc4cc(O[C@@H]5CO[C@H]6[C@@H]5OC[C@H]6O)[nH]c4cc3F)cc2)cc1 | TSSK2 (Homo sapiens, UniProt Q96PF2) | enzyme activity, inhibitor | – | 10 µM | 12% |
| N[C@H](C(=O)N1CCCC1)C1CCN(c2nccc3c(-c4ncc(Cl)cc4Cl)cccc23)CC1 | PADI4 (Homo sapiens, UniProt Q9UM07) | enzyme activity, GDH-coupled | – | 60 µM, together with: 1.5 mM Ca2+ (high) | 100% |
| CCCC(=O)CC(=O)N[C@H]1CCOC1=O | lasR | reporter gene, antagonist | Escherichia coli JLD271 | 10 µM, pSC11 and pJN105L plasmids, together with: OdDHL 2 nM | 73% |
| CN(C)[C@H]1C[C@@]23CC[C@@]4(O2)C(=CC[C@]2(C)[C@@H](c5ccc6ccncc6c5)CC[C@H]24)C=C3[C@@H](O)[C@@H]1O | EPHA1 (Homo sapiens, UniProt P21709) | ATP probe labelling, inhibitor, KiNativ profiling | – | 0.1 µM | 3.8% |
| O=C(CCCOc1ccc(Cl)cc1)N[C@H]1CCOC1=O | lasR | reporter gene, antagonist | Escherichia coli JLD271 | 10 µM, pSC11 and pJN105L plasmids, together with: OdDHL 2 nM | 14% |
| CC(=O)NC[C@@H]1C[C@@H](O)[C@H]2[C@H](O)C[C@@H](CO)N12 | β-N-acetylglucosaminidase | enzyme activity, inhibitor, colorimetric | Canavalia ensiformis | 150 nM, together with: p-nitrophenyl GlcNAc substrate | 48.1% and 43.6% |
